Measurements pooled from the literature.
Every numbered part comes from another study and shows a few of its results, in no order.

Set 1 — technique: aptamer microarray, sandwich; molecule type: DNA with 2'F-ANA; medium: in vitro; concentration: 200 nM; added: Cy3 exosite-II aptamer, 400 nM; direction: higher = stronger binding; sequence: GGTTGGTGTGGTTGG
Target: Prothrombin, mature alpha-thrombin (F2, Homo sapiens, UniProt P00734)
Notes: whole 15-mer aptamer, many near background
`2'F-ANA at 1 2 3 8 10 11 12 14` — result for “mean fluorescence intensity”: 51.4 a.u.
For `2'F-ANA at 1 2 5 6 8 9 14 15`, “mean fluorescence intensity” read 45.4 a.u.
`2'F-ANA at 1 2 3 5 6 9 10 11 13 14`: “mean fluorescence intensity” 53.7 a.u.
`2'F-ANA at 2 4 5 6 7 9 11 13` — result for “mean fluorescence intensity”: 83.8 a.u.
`2'F-ANA at 3 7 8 9 11 12 13 15`: “mean fluorescence intensity” 1120 a.u.
For `2'F-ANA at 3 4 5 6 9 10 13`, “mean fluorescence intensity” read 46.7 a.u.
For `2'F-ANA at 1 5 8 10 14`, “mean fluorescence intensity” read 121 a.u.
`2'F-ANA at 1 2 4 9 14`: “mean fluorescence intensity” 45.2 a.u.
`2'F-ANA at 3 4 7 10 11 14`: “mean fluorescence intensity” 239 a.u.

Set 2 — technique: protein-binding microarray; molecule type: double-stranded DNA, one strand shown; medium: in vitro; concentration: 250 nM; notes: 60-bp whole probe; added: salmon DNA 0.4 mg/ml; reference: random background probes; direction: higher = stronger binding; all sequences stand within: GCCTAGCAC … GTCTTGATTCGCTTGACGCTGCTG
Target: Interferon regulatory factor 5, full length, phosphomimetic (IRF5, Homo sapiens, UniProt Q13568-2, residues 1-514, K96S/S451D/S453D/S456D/S462D)
`GACGATCACAGTATCGAGACGTGCTAG` gave a log fluorescence of 1.55 z-score.
`TTAGGTAACGGTATCGGTTAGTGCTAG` has a log fluorescence of 4.5 z-score.
`TTAGGACTGCTACGGCTTTAGTGCTAG` gave a log fluorescence of -0.644 z-score.
For `TTAGATTTCGGGTTTCGTTTAGTGCTA`, the log fluorescence was 7.35 z-score.
For `CCAGTGCTGCTTTGTCAAGAGTGCTAG`, the log fluorescence was -0.39 z-score.
For `GACGATTTCTGTTCCGAGACGTGCTAG`, the log fluorescence was 1.83 z-score.
With `GGGAATTTAGAAAATGGAAATGTGCTA` the log fluorescence was 0.504 z-score.
For `TTAGGACTGGGGACTGGGATAGTGCTA`, the log fluorescence was -0.399 z-score.

Set 3 — technique: universal PBM; molecule type: double-stranded DNA, one strand shown; medium: in vitro; concentration: not given; direction: higher = stronger binding
Target: Sal-like protein 4, full length isoform B (SALL4, Homo sapiens, UniProt Q9UJQ4-2, residues 1-616)
Notes: 8-mer, flanks averaged, mean of replicates
Construct (chain): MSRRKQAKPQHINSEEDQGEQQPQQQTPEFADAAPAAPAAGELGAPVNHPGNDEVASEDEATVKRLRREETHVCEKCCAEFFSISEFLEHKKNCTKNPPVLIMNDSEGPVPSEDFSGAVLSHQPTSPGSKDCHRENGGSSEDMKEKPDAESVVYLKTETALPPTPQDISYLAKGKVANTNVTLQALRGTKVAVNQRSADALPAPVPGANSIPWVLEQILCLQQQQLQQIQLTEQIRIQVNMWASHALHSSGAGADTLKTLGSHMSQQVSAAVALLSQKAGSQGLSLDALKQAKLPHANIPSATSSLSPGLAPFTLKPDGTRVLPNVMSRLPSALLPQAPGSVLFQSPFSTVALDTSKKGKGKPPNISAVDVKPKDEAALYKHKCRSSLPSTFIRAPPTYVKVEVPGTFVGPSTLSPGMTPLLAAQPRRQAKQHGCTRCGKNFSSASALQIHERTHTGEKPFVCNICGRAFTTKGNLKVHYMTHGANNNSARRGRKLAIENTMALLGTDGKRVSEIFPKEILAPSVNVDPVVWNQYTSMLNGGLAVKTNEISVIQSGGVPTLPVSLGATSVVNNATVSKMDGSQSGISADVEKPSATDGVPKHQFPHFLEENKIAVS
`ACTGATAT` has an E-score of 0.169.
The E-score of `ATGGAGCC` is reported as -0.105.
For `CAGTTCCC`, the E-score was -0.344.
`AACCAAGG` gave an E-score of 0.0538.
For `AATCGGAG`, the E-score was -0.0878.
With `AGGCATAA` the E-score was 0.21.
`CCTATTTC` has an E-score of 0.136.
The E-score of `AAGCGATG` is reported as -0.145.

Mixed results
With `PhoQ, residues 284 288 289 292 302 303 NLMGRA` the fold induction was 3.56 (PhoP, residues 12 14 15 18 19 LHATL (Escherichia coli, UniProt P23836); Sort-seq, measured: YFP reporter; E. coli; PhoQ-PhoP variant library, added: 10 µM Mg2+; reference: high Mg2+ state, higher = stronger signaling).

A few entries again (set 1):
For `2'F-ANA at 3 4 5 6 9 10 13`, “mean fluorescence intensity” read 46.7 a.u.
For `2'F-ANA at 1 2 5 6 8 9 14 15`, “mean fluorescence intensity” read 45.4 a.u.
